Results pooled from the literature.
Protocols differ between the studies behind these lines. ± gives the spread as reported.

Structure (SMILES) | cell line | assay | conditions | EC50 [µM]
CN[C@H]1CCN(C(=O)c2c(C)cc(C(F)(F)F)nc2-c2ccnc3cc(CN4C(=O)C5C(C4=O)C5(C)C)sc23)C1 (stereo partly shown) | SW480 | Wnt/β-catenin reporter, inhibitor, TOPFlash/FOPFlash | 24 h | 0.15
O=c1c(-c2cnn(-c3ccccc3)c2)c(C(F)(F)F)oc2c(O)c(O)ccc12 | NB-4 | apoptosis, annexin V flow cytometry |  | ~7
CCc1ccc(-c2nc(CSCC(=O)NCCc3ccccc3)c(C)o2)cc1 | HEK293T | Wnt Super-TOPFlash reporter, inhibitor | 24 h | 39
C=C(NC(=O)c1csc(-c2ccc(NC(=O)CCCCCBr)cc2)n1)C(=O)NC(=C)C(=O)OC | SQ20B | cell growth or viability |  | 1.2
Nc1ccccc1Nc1nc2ccccc2[nH]1 | SH-SY5Y | cytoprotection, FDA/PI staining | added: 0.8 µM p-tau | 15.1
CC(=O)N(C)Cc1cccc(-c2cc3c(c(C(F)(F)F)c2)CCCC3N(C)C(=O)CCOCCOCCC(=O)N(C)C2CCCc3c2cc(-c2cccc(CN(C)C(C)=O)c2)cc3C(F)(F)F)c1 (stereo not shown) | CHO CHOP::luciferase reporter | CHOP luciferase reporter, activator | 18 h | 13
COc1nc(Nc2nc(O)c3ccccc3n2)nc2ccc(C)cc12 | LDR | silenced CMV-GFP reporter derepression, qHTS |  | 3.98
COC(=O)[C@H](C)NC(=O)[C@H](C)NC(=O)c1csc(-c2cccnc2)n1 | LNCaP | cell growth or viability |  | > 30
COc1cccc(/C=N/Nc2nc(Nc3ccccc3)nc(-n3nc(C)cc3C)n2)c1O | LDR | silenced CMV-GFP reporter derepression, qHTS |  | 2.51
COc1ccc(-n2nc([N+](=O)[O-])/c(=N/c3cc(C)ccc3C)n2O)cc1 | SH-SY5Y | cytoprotection, FDA/PI staining | added: 0.8 µM p-tau | 2.79
C=C(NC(=O)c1csc(-c2cccnc2)n1)C(=O)NC(=C)C(=O)OC | SQ20B | cell growth or viability |  | 4.9
CC1=C/C(=N\N=C(/S)Nc2cccnc2)CC(C)(C)C1 | LDR | silenced CMV-GFP reporter derepression, qHTS |  | 6.31
CC(C)(C)c1cc(-c2ccc3cccnc3n2)nc(-c2ccc3cccnc3n2)c1.COc1ccncc1.[Cl-].[Cl-].[Ru+2].c1ccc2cc3nc4c5cccnc5c5ncccc5c4nc3cc2c1 | SK-MEL-28 | photocytotoxicity | light 633 nm, oxygen 1% | 33.4 ± 5.8

A few entries again:
Structure (SMILES) | cell line | assay | conditions | EC50 [µM]
COc1ccc(-n2nc([N+](=O)[O-])/c(=N/c3cc(C)ccc3C)n2O)cc1 | SH-SY5Y | cytoprotection, FDA/PI staining | added: 0.8 µM p-tau | 2.79
